Measured values from different studies.
Lines come from different studies, so protocols differ.
Cell line: HT-1080

| Compound | test | setting | how to read | quantity | result |
| --- | --- | --- | --- | --- | --- |
| O=C(Nc1cc(OCCN2CCCC2)c2ccccc2n1)c1cccc(C(=O)Nc2cc(OCCN3CCCC3)c3ccccc3n2)n1 | cell viability, CellTiter-Glo | 72 h | relative to: IC50 HT-1080 over WI-38 | selectivity ratio | 5.5 |
| O=C(NCc1cc(F)cc(F)c1)[C@@]1(O)CCN(c2ccc3[nH]ccc3c2)C1=O | colony formation | – | – | IC50 | 0.071 µM |
| CCOc1cncc(-c2ccc(NC(=O)C3(c4ccnc(NS(=O)(=O)C5CC5)n4)CCOCC3)nc2)n1 | cell proliferation, CellTiter-Glo | 72 h, Sarcoma cancer | – | IC50 | 0.061 µM |
| NCCOc1cc(NC(=O)c2cc(Cl)cc(C(=O)Nc3cc(OCCN)c4ccccc4n3)n2)nc2ccccc12 | cell viability, CellTiter-Glo | 72 h | relative to: IC50 HT-1080 over WI-38 | selectivity ratio | 0.9 |
| Cn1ncc(-c2ccc3c(=O)[nH]nc(CN)c3c2)c1-c1c(F)c(Cl)cc(OC2CC2)c1C#N | cell viability, inhibitor, CellTiter-Glo | 120 h, baseline-subtracted | – | IC50 | 0.08 µM |
| Cc1cc(C)nc(NC(=S)N2CCN(c3ccncc3)CC2)c1 | cell viability, CellTiter-Glo | 4 days | – | EC50 | > 100 µM |
| CC(C)c1ccc(N(C)c2ccc3c(c2)OCC[C@H]3CNc2cnccc2C(=O)O)cc1 | cell growth or viability, ATP luminescence | 7 days | – | IC50 | 0.0141 µM |
| CNS(=O)(=O)Nc1nccc(Cc2c(C)c3ccc(Oc4ncccc4F)cc3oc2=O)c1F | cell viability | 7 days | – | IC50 | 0.00216 µM |

Some of these lines once more:
| Compound | test | setting | how to read | quantity | result |
| --- | --- | --- | --- | --- | --- |
| NCCOc1cc(NC(=O)c2cc(Cl)cc(C(=O)Nc3cc(OCCN)c4ccccc4n3)n2)nc2ccccc12 | cell viability, CellTiter-Glo | 72 h | relative to: IC50 HT-1080 over WI-38 | selectivity ratio | 0.9 |
